Published values gathered from unrelated publications.
Each numbered part is a random draw from the data of one study; scales do not carry over between parts. Changes are numbered by the printed parent chain.

Series 1 — technique: protein binding microarray; molecule type: double-stranded DNA, one strand shown; medium: in vitro; tested at: not given; baseline: not given; direction: higher = stronger binding
Target: Histone acetyltransferase KAT6A, both winged helices, GST fusion (KAT6A, Homo sapiens, UniProt Q92794, residues 1-181)
Setting: 8-mer, flanks averaged, mean of 2 arrays, mostly near background
Target sequence (chain): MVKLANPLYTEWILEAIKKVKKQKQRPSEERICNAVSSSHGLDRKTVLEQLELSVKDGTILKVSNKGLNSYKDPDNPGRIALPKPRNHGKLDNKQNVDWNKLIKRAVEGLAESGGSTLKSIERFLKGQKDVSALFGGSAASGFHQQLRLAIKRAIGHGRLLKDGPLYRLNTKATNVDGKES
Sequence | E-score
ATCCAGAG | -0.135
CAACCACC | -0.115
ACGAAACA | -0.00987
CCCGGCAC | 0.133
CGCCAGGA | 0.121
GGCTGCTA | -0.0621
GACGGACA | 0.197
CAAATTGA | -0.178
CGCGATGA | 0.21
ACCCGAGG | 0.0783
AATGATTG | -0.14
ATGCACTA | -0.0518
AAGATTAG | 0.0618
CTAGGAAC | -0.15
TCTGCCAA | -0.0967
AATTAGCG | 0.188
AGTCTGTG | -0.116
CCCCGGGG | 0.286
CATGTAGA | -0.147
GCAGTGCA | -0.067
GACGTAGA | -0.066
AATCCGTA | 0.115
GCATGCTA | -0.0183
CCAATCCA | -0.215
GCACCCAA | -0.0312

Series 2 — technique: competition protein-binding microarray; molecule type: double-stranded DNA, one strand shown; medium: in vitro; tested at: 2 µM; together with: Cbf1 competitor, 0.05 µM; direction: higher = stronger binding; shared flanks, not repeated: … GTCTTGATTCGCTTGACGCTGCTG
Target: Phosphate system positive regulatory protein PHO4, full length, GST-tagged (PHO4, Saccharomyces cerevisiae, UniProt P07270, residues 1-312)
Setting: whole 60-bp probe, lowest competitor level
Residues (chain): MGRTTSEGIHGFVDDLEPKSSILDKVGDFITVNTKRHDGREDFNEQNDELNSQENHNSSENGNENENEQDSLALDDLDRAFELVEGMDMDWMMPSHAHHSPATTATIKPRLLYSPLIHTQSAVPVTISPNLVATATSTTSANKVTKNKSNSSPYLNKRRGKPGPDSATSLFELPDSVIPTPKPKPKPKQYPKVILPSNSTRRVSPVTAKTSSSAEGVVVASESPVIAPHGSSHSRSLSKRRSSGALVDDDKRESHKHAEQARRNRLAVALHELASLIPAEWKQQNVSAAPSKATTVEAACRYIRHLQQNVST
Sequence | fluorescence intensity [a.u.]
AAATTACTAAGTTGTTGGGTGGGTGACGCCGTATGA | 4220
TCGCGAGAATTTGGGCACATGTGTGCCGGAATGTAT | 12400
TGCGCAACAACTTGGAGCGTGGGTGTATGTCTAGAA | 8090
AATTCCTTATGCGGGCCCGGTCAGAACGGATTATAG | 3630
CTTTCCCGATCTTTTCACGTGAGCTTAGCACATTTG | 11200
AGGAAGAAAGAGCTGCTCGTGTTGGTGCCAAGATCG | 7480
CCTCGGCGCTCCAACCACGTGCTGTTTATTACTCTG | 21800
AATGGGTATGGCAGCACCGTGATGGAACAACCATTT | 6660
AAATTACTAAGTTCACACGTGTTTTACCCCGTATGA | 18800
GCTGGAATGCCGCGACAGATGTAACAAGAATGTGTT | 5020
CGTCCTAGTGATTGTCACGGTACTTCCATGAGGAAG | 5080
TTGCGCAGGGCGAGCCAGATGAACGCTCTAGTCGTC | 2710
TGTTAGGTTTACCAGAACGTGGCCGATTTCTGCCAG | 11900
CATACCCAACCTTGAATTGTGGGTGAAGATATTTGT | 4530
CAAAAACTAAACTGGCACGCTAGAGAAAAGTAGTCA | 6810
TTGCCGTGTGAAGGCAACGTGATGGCCGCTACACTA | 10400
CATACCCAACCTTGGATCGTGGGTGAAGATATTTGT | 10200
TGCGCAACAACTTGTCACCAAACTTTATGTCTAGAA | 3160
AAAGCGGTAATTTGCGGAGTGGGTGCAGATATCTAT | 4300

Series 3 — target: UBE2E3 UBC core domain (UniProt Q969T4); technique: yeast two-hybrid; medium: yeast; setting: mostly zero background; baseline: not given; direction: higher = stronger interaction
UniProt Q969T4, sequence (whole entry, looked up): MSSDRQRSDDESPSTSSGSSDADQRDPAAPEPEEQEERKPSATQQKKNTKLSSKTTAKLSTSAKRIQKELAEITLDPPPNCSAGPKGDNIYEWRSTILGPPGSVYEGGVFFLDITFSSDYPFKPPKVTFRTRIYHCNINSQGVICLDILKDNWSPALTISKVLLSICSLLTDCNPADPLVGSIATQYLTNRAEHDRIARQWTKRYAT
B1: MARCHF2 RING domain (UniProt Q9P0N8); chain RLLSTVIRALDTPSDGPFCRICHEGANGECLLSPCGCTGTLGAVHKSCLEKWLSSSNTSYCELCHTEFAVEKRPRPLTEWL
B2: RNF7 RING domain (UniProt Q9UBF6); chain AICRVQVMDACLRCQAENKQEDCVVVWGECNHSFHNCCMSLWVKQNNRCPLCQQDWVVQRIGK
B3: TRIM68 RING domain (UniProt Q6AZZ1); chain LVEAIVEEVACPICMTFLREPMSIDCGHSFCHSCLSGLWEIPGESQNWGYTCPLCRAPVQPRNLRP
B4: UBE4B RING domain (UniProt O95155); chain KNARAEIDYSDAPDEFRDPLMDTLMTDPVRLPSGTIMDRSIILRHLLNSPTDPFNRQTLTESMLEPVPELKEQIQAWMREKQNSDH
B5: TRIM47 RING domain (UniProt Q96LD4); chain MDGSGPFSCPICLEPLREPVTLPCGHNFCLACLGALWPHRGASGAGGPGGAARCPLCQEPFPDGLQLR
B6: TRIM32 RING domain (UniProt Q13049); chain NLDALREVLECPICMESFTEEQLRPKLLHCGHTICRQCLEKLLASSINGVRCPFCSKITRITSLTQ
B7: CBLL1 RING domain (UniProt Q75N03); chain GEKDDTPVHFCDKCGLPIKIYGRMIPCKHVFCYDCAILHEKKGDKMCPGCSDPVQRIEQCT
B8: PJA2 RING domain (UniProt O43164); chain DHTAIGQEQCCPICCSEYIKDDIATELPCHHFFHKPCVSIWLQKSGTCPVCRRHFPPAVIEA
B9: TRIM74 RING domain (UniProt Q86UV6); chain SLLELEDWLQCPICLEVFKESLMLQCGHSYCKGCLVSLSYHLDTKVRCPMCWQVVDGSSSLP
B10: NHLRC1 RING domain (UniProt Q6VVB1); chain MREAEISLLECKVCFEKFGHRQQRRPRNLSCGHVVCLACVAALAHPRTLALECPFCRRACRGCDTSD
Sequence | lacZ reporter activity
B1 (MARCHF2 RING domain) | 0
B2 (RNF7 RING domain) | 0
B3 (TRIM68 RING domain) | 0
B4 (UBE4B RING domain) | 0
KITELNPHLMCALCGGYFIDATTIVECLHSFCKTCIVRYLETNKYCPMCDVQVHKTRPLL (PCGF2 RING domain (UniProt P35227)) | 0
B5 (TRIM47 RING domain) | 0
B6 (TRIM32 RING domain) | 0
B7 (CBLL1 RING domain) | 0
B8 (PJA2 RING domain) | 2190
B9 (TRIM74 RING domain) | 0
B10 (NHLRC1 RING domain) | 0

Series 4 — technique: DHFR PCA, deep sequencing; medium: yeast; together with: (+)-ABA 2500 µM; baseline: wild-type fitted maximum; direction: higher = stronger binding
Target: ABI1, truncated, D143A, DHFR fusion (Arabidopsis thaliana)
Setting: methotrexate growth selection, single substitutions
Starting sequence: PYL1, truncated, DHFR fusion (Arabidopsis thaliana); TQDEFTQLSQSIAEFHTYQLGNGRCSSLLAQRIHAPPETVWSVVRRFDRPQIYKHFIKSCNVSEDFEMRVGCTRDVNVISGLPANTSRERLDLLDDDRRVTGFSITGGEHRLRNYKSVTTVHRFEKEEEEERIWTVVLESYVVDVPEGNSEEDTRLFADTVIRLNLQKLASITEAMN
Variant | relative binding score
G107F | 72.3%
V143Q | 85.6%
I33H | -14.4%
E131Q | 105%
E89N | -8.19%
F56H | 85.9%
R74N | -5.16%
I105D | 8.21%
G107W | 79.8%
D48N | 93.3%
R111D | 68%
A84V | 50.5%
I57P | -1.59%
R123C | 99.6%
R88V | 97.3%
T17Q | 102%
Q10Y | 91.3%
L138T | 75.8%
E109Y | 96.8%
V76I | 96%
L112G | -1.61%
E125M | 100%
R69D | 97.1%

For quick reference, copied from above (series 3):
Sequence | lacZ reporter activity
B9 (TRIM74 RING domain) | 0
B8 (PJA2 RING domain) | 2190
B6 (TRIM32 RING domain) | 0
B10 (NHLRC1 RING domain) | 0
KITELNPHLMCALCGGYFIDATTIVECLHSFCKTCIVRYLETNKYCPMCDVQVHKTRPLL (PCGF2 RING domain (UniProt P35227)) | 0
B3 (TRIM68 RING domain) | 0
B7 (CBLL1 RING domain) | 0
B1 (MARCHF2 RING domain) | 0
B2 (RNF7 RING domain) | 0
B4 (UBE4B RING domain) | 0
B5 (TRIM47 RING domain) | 0
